Results collected from several papers.
Each line is one published result; not all experiments were run side by side. Values joined by “and” are separate records of one study, mostly repeats; a detail may differ. ± gives the spread as reported.
HTR2C: 5-hydroxytryptamine receptor 2C (HTR2C, Homo sapiens, UniProt P28335)
UniProt P28335, sequence (whole entry, looked up): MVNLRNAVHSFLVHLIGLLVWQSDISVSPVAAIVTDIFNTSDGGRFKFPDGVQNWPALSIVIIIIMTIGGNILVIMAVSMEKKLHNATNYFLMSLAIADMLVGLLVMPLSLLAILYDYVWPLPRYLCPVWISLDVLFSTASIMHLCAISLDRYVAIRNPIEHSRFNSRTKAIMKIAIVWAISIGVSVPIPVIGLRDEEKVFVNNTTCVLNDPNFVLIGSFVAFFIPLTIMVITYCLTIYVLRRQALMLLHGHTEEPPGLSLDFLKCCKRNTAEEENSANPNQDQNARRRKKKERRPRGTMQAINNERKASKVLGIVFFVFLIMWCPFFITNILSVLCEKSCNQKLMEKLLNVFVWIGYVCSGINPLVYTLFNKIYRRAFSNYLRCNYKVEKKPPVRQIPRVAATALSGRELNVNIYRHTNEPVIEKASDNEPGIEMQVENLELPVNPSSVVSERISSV
nadD: Probable nicotinate-nucleotide adenylyltransferase (nadD, Mycobacterium tuberculosis, UniProt P9WJJ5)
UniProt P9WJJ5, sequence (whole entry, looked up): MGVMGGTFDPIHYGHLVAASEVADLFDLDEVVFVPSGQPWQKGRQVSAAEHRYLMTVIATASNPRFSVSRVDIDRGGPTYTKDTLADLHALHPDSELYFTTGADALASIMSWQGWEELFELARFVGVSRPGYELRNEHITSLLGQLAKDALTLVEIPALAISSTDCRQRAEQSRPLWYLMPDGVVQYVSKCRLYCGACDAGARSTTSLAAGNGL
Neuronal acetylcholine receptor; alpha4/beta2: Neuronal acetylcholine receptor; alpha4/beta2 (Homo sapiens, UniProt P17787+P43681)
UniProt P17787, sequence (whole entry, looked up): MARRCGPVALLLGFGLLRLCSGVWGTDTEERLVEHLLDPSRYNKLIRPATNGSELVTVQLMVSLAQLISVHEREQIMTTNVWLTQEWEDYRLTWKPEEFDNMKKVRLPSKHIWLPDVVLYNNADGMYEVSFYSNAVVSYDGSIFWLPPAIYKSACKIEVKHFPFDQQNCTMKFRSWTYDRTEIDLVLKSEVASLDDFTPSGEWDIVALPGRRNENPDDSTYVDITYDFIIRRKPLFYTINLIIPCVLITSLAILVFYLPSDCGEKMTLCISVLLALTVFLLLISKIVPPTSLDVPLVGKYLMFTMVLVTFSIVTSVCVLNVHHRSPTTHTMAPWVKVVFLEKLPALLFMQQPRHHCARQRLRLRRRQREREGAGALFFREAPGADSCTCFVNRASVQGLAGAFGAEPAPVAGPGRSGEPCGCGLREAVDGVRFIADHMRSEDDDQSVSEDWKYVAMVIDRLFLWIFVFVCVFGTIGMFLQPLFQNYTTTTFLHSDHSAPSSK
UniProt P43681, sequence (whole entry, looked up): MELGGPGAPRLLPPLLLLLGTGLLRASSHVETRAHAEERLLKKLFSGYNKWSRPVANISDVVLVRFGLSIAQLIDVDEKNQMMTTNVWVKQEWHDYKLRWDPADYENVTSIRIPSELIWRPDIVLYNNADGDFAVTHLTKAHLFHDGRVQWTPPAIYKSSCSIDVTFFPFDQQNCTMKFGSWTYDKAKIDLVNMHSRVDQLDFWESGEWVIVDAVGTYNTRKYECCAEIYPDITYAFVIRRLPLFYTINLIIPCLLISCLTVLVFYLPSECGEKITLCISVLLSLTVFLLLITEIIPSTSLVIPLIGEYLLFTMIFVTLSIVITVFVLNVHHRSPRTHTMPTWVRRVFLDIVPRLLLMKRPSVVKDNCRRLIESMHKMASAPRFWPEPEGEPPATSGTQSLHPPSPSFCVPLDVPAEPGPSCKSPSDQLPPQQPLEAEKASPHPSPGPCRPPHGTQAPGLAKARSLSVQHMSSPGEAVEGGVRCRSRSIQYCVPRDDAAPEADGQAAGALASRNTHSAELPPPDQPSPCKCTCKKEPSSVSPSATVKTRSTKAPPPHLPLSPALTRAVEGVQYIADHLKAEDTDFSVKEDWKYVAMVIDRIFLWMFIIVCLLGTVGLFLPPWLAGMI
SLC6A4: Sodium-dependent serotonin transporter (SLC6A4, Homo sapiens, UniProt P31645)
UniProt P31645, sequence (whole entry, looked up): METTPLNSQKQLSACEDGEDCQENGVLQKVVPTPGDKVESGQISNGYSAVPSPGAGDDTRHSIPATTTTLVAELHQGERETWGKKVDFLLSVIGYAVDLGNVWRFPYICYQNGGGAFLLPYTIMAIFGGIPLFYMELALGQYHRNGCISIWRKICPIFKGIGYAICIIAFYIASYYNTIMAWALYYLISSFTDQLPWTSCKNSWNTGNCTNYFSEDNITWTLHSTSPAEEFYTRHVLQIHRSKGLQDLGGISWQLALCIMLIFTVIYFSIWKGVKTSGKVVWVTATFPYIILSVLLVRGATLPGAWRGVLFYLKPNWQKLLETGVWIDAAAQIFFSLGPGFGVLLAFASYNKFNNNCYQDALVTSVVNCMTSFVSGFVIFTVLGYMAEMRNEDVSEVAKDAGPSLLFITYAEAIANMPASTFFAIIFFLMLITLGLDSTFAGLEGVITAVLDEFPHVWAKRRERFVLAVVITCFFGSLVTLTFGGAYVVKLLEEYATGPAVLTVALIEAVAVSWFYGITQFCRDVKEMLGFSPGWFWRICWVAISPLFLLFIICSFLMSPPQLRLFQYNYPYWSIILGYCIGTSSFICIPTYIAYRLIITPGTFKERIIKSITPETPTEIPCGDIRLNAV
UniProt O95180, sequence (whole entry, looked up): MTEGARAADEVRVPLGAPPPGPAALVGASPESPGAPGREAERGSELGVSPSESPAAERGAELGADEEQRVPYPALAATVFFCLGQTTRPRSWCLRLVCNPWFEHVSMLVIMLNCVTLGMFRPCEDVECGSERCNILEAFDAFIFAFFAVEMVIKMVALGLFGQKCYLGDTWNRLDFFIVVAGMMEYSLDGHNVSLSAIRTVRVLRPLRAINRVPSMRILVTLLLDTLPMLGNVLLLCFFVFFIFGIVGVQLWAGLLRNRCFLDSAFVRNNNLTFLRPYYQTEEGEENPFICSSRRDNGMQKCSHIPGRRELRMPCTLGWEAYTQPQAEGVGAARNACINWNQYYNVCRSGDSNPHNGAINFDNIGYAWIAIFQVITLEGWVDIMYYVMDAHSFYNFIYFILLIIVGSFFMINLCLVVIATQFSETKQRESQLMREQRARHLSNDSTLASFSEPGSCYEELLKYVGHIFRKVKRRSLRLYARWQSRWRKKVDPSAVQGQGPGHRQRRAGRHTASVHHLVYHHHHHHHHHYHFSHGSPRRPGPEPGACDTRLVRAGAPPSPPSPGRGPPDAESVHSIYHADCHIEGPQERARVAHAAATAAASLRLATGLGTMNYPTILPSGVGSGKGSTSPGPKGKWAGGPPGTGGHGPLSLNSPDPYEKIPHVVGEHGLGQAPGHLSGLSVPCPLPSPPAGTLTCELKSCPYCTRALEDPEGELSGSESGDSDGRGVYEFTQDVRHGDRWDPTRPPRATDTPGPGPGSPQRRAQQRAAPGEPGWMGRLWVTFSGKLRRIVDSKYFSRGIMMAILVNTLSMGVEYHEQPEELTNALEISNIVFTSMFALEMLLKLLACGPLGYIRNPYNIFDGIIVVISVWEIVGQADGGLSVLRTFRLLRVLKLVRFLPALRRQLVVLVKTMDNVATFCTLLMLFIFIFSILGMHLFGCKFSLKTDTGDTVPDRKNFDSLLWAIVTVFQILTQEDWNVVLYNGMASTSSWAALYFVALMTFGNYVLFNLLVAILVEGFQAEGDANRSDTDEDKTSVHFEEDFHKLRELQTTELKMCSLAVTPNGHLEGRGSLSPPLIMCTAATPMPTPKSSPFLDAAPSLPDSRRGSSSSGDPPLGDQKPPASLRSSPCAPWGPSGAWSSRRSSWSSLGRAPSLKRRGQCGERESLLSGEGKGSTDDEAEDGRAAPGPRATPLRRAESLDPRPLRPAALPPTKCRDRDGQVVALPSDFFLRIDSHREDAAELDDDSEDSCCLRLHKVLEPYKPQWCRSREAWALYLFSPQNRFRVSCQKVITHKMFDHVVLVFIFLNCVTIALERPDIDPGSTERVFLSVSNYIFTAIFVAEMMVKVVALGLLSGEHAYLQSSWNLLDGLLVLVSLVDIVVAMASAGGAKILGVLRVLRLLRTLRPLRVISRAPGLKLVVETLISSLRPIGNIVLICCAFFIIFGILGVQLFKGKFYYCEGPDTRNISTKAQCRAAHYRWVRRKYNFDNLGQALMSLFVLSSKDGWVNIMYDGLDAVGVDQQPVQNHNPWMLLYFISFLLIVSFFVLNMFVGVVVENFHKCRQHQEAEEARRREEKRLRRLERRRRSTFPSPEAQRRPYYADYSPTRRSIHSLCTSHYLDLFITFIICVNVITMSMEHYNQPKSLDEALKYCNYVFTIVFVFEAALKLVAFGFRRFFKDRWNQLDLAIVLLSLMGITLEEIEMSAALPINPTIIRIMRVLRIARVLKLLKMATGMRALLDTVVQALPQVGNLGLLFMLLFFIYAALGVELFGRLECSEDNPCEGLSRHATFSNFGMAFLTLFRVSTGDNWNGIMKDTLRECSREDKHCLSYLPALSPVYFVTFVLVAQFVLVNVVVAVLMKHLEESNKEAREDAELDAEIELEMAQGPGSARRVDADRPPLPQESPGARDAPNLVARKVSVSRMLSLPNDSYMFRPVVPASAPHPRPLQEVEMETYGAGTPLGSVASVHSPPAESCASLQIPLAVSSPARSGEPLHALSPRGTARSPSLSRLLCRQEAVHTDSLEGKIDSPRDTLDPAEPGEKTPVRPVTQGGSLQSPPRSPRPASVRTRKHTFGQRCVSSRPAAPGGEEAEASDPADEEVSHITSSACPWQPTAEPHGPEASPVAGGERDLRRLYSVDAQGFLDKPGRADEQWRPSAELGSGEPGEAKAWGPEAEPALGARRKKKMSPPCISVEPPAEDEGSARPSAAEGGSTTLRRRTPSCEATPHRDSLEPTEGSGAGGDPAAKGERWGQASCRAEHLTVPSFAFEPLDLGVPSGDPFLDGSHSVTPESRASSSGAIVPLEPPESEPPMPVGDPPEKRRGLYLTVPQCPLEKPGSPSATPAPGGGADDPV

Under IC50, `CCC1(c2ccccc2)CCC(=O)NC1=O` (stereo not drawn) is recorded as “no effect” (Androgen receptor (AR, Homo sapiens, UniProt P10275)).
`CCCC(C(=O)c1ccc2ccccc2c1)N1CCCC1` (stereo not drawn) gave an IC50 of over 1000 µM (HTR2C; inositol phosphate, antagonist).
The IC50 of `CCn1cc(C(=O)NCc2ccccc2Cl)c(=O)c2cc(F)c(N3CCN(C(=O)c4ccco4)CC3)cc21` is reported as 5.3 ± 1.8 µM (nadD; enzyme activity, inhibitor, released pyrophosphate).
`Ic1cncc(OC[C@@H]2CCN2)c1` gave an IC50 of 0.0114 µM (Neuronal acetylcholine receptor; alpha4/beta2; ligand displacement, radioligand).
`O=c1[nH]c2ccccc2n1C1CCN(CCCC(c2ccc(F)cc2)c2ccc(F)cc2)CC1` has an IC50 of 8.9 ± 3.6 µM (Voltage-dependent T-type calcium channel subunit alpha-1H (CACNA1H, Homo sapiens, UniProt O95180); calcium current, blocker, automated patch clamp; holding potential -90 mV; together with: 60 s prepulse, -75 mV).
The IC50 of `CN1[C@H]2CC[C@@H]1[C@@H](C(=O)Oc1ccccc1)[C@@H](c1ccc(Cl)cc1)C2` is reported as 0.00065 µM (Sodium-dependent dopamine transporter (Slc6a3, Mus musculus, UniProt Q61327); transporter uptake, inhibitor, radiometric).
With `c1ccc(CCCN2CCN(CCOC(c3ccccc3)c3ccccc3)CC2)cc1` the IC50 was 30 µM (Equilibrative nucleoside transporter 4 (SLC29A4, Homo sapiens, UniProt Q7RTT9); transporter uptake, inhibitor, radiometric; pH 7.4).
`COCCC1CC2CN3CCc4c([nH]c5ccccc45)C(C(=O)OC)(C2)C13` (racemic) gave an IC50 of 34.7 ± 5 µM (Neuronal acetylcholine receptor subunit alpha-7 (CHRNA7, Homo sapiens, UniProt P36544); calcium influx, antagonist; GH3-hα7; 5 min, together with: (±)-epibatidine 1.0 µM).
The IC50 of `CCn1cc(C(=O)NCCc2ccccc2)c(=O)c2cc(F)c(N3CCN(C(=O)c4ccco4)CC3)cc21` is reported as 29.6 ± 6.2 µM (nadD; enzyme activity, inhibitor, released pyrophosphate).
The IC50 of `COC1C(O)C(n2ccc(=O)[nH]c2=O)OC1C(OC1OC(C(=O)Nc2ccc(F)c(F)c2)=CC(O)C1O)C(N)=O` (stereo not drawn) is reported as over 100 µM (bacterial RNA polymerase; enzyme activity, inhibitor; greater than highest tested).
For `CCn1cc(C(=O)NC(C)c2ccccc2)c(=O)c2cc(F)c(N3CCN(C(=O)c4ccco4)CC3)cc21` (stereo not drawn), the IC50 was 2.5 ± 0.3 µM (nadD; enzyme activity, inhibitor, released pyrophosphate).
With `CC#CCOC(=O)c1c(C)nc2sc3c(c2c1N)CCC(O)C3` (stereo not drawn) the IC50 was 0.53 µM (ERRα (human); reporter gene, antagonist, luciferase reporter qHTS).
With `CCCC(C(=O)c1ccc2c(c1)OCO2)N1CCCC1` (stereo not drawn) the IC50 was over 1000 µM (HTR2C; inositol phosphate, antagonist).
With `CCCCCc1cc(O)c2c(c1)OC(C)(C)c1ccc(C)cc1-2` the IC50 was 350 µM (rat intestinal α-glucosidase; enzyme activity, inhibitor).
The IC50 of `Cc1n(CC(=O)OC2CC(C)CCC2C(C)C)c2ccccc2[n+]1C` (stereo not drawn) is reported as ~100 µM and 111 µM (nadD; released PPi detection).
`C[C@]12CC[C@@H](O)C[C@@H]1CC[C@H]1[C@@H]3CC[C@H](C=O)[C@@]3(C)CC(=O)[C@@H]12` has an IC50 of 0.77 ± 0.098 µM (GABAA receptor picrotoxin site).
For `COc1ccc(OCc2n(CC(=O)OC3CC(C)CCC3C(C)C)c3ccccc3[n+]2C)cc1` (stereo not drawn), the IC50 was 6.3 ± 1.1 µM (nadD; released PPi detection).
With `CNC(C)C(=O)c1cccc(C)c1` (stereo not drawn) the IC50 was 4.5 µM (SLC6A4; transporter uptake, inhibitor, radiometric).
For `NC(N)=Nc1ccc2[nH]c3c(c2c1)C[C@@]1(O)[C@H]2Cc4ccc(O)c5c4[C@@]1(CCN2CC1CC1)[C@H]3O5`, the IC50 was over 100 µM (L-aminoadipate-semialdehyde dehydrogenase-phosphopantetheinyl transferase (AASDHPPT, Homo sapiens, UniProt Q9NRN7); phosphopantetheinylation, inhibitor, fluorescence polarization; 45 min, pH 7.6, 10% DMSO, together with: VibB 10 µM and rhodamine-CoA 5 µM).
For `CCCC(NCC)C(=O)c1ccc2c(c1)OCO2` (stereo not drawn), the IC50 was 0.46 µM (SLC6A4; transporter uptake, inhibitor, radiometric).
`CCn1cc(C(=O)Nc2nc(C)cs2)c(=O)c2cc(F)c(N3CCN(C(=O)c4ccco4)CC3)cc21` has an IC50 of over 50 µM (nadD; enzyme activity, inhibitor, released pyrophosphate).
The IC50 of `CCCC(C(=O)c1ccc2c(c1)OCO2)N(C)C` (stereo not drawn) is reported as 2.57 µM (SLC6A4; transporter uptake, inhibitor, radiometric).
For `CCn1cc(C(=O)NCCC(C)C)c(=O)c2cc(F)c(N3CCN(C(=O)c4ccco4)CC3)cc21`, the IC50 was 17.4 ± 3.4 µM (nadD; enzyme activity, inhibitor, released pyrophosphate).
`CCC1=C[C@@H]2CN3CCc4c([nH]c5ccccc45)[C@@](C(=O)OC)(C2)[C@@H]13` gave an IC50 of 12.6 ± 1.8 µM (Neuronal acetylcholine receptor; alpha4/beta2; calcium influx, antagonist; HEK293-hα4β2; 5 min, together with: (±)-epibatidine 0.1 µM).
